Measured values from different studies.
Protocols differ between the studies behind these lines. ± marks the error that the study gave.

Under “tumour to skin uptake ratio”, `CCCC[C@@H]1NC(=O)[C@@H](NC(=O)[C@H](CCC(=O)O)NC(=O)CNC(=O)CN2CCN(CC(=O)O)CCN(CC(=O)O)CCN(CC(=O)O)CC2)CCCCNC(=O)C[C@@H](C(N)=O)NC(=O)[C@H](C(C)C)NC(=O)[C@@H]2CCCN2C(=O)[C@H](CCCNC(=N)N)NC(=O)CNC(=O)[C@H](Cc2c[nH]c3ccccc23)NC(=O)[C@H](CCCNC(=N)N)NC(=O)[C@@H](Cc2ccccc2)NC(=O)[C@H](Cc2c[nH]cn2)NC(=O)[C@H](CCC(=O)O)NC1=O` [gallium-67 labelled] is recorded as 9.25 (C57 mouse, B16/F1 flank melanoma; 2 h post-injection, with: peptide blockade 10 µg).
`CCCC[C@H](NC(=O)CN1CCC(NC(=O)CN2CCN(CC(=O)O)CCN(CC(=O)O)CCN(CC(=O)O)CC2)CC1)C(=O)N[C@H]1CC(=O)NCCCC[C@@H](C(N)=O)NC(=O)[C@H](Cc2c[nH]c3ccccc23)NC(=O)[C@H](CCCNC(=N)N)NC(=O)[C@@H](Cc2ccccc2)NC(=O)[C@H](Cc2c[nH]cn2)NC1=O` [gallium-68 labelled] — result for “tumour to bone ratio”: 35.4 ± 15.3 (biodistribution; C57BL/6J mouse male tumour-bearing; 1 h post injection, unblocked; baseline: tumour over bone).
`CN1C(=O)[C@@H](Cc2ccc(O)c(I)c2)NC(=O)CNC(=O)[C@H](Cc2ccc3ccccc3c2)NC(=O)[C@H](CCCNC(=N)N)NC(=O)[C@H]1CCCNC(=O)c1ccc(CNC(=O)CN2CCN(CC(=O)O)CCN(CC(=O)O)CC2)cc1` [fluorine-18 labelled]: “tumour to gut ratio” 16.5 ± 6.5 (biodistribution; SCID mouse, Daudi lymphoma xenograft; 1 h post-injection).
`CCCC[C@H](NC(=O)[C@H](CCC(=O)O)NC(=O)CNC(=O)CN1CCN(CC(=O)O)CCN(CC(=O)O)CCN(CC(=O)O)CC1)C(=O)N[C@H]1CC(=O)NCCCC[C@@H](C(N)=O)NC(=O)[C@H](Cc2c[nH]c3ccccc23)NC(=O)[C@H](CCCNC(=N)N)NC(=O)[C@@H](Cc2ccccc2)NC(=O)[C@H](Cc2c[nH]cn2)NC1=O` [indium-111 labelled]: “tumour to skin uptake ratio” 24.3 (C57 mouse, B16/F1 melanoma; 2 h; baseline: tumour over skin).
`CC(F)C(=O)NC[C@@H]1O[C@H](C(=O)NCCCC[C@@H]2NC(=O)[C@@H](Cc3ccccc3)NC(=O)[C@H](CC(=O)O)NC(=O)CNC(=O)[C@H](CCCNC(=N)N)NC2=O)[C@H](O)[C@H](O)[C@H]1O` (stereo partly drawn) [fluorine-18 labelled] gave a tumour uptake of 1.16 ± 0.06 %ID/g (microPET imaging; female athymic nude mouse, U-87 MG xenograft, U-87 MG tumour; intravenous, 3.7 MBq, 1 h post-injection).
The tumour uptake of `CN1C(=O)[C@@H](Cc2ccc(O)cc2)NC(=O)CNC(=O)[C@H](Cc2ccc3ccccc3c2)NC(=O)[C@H](CCCNC(=N)N)NC(=O)[C@H]1CCCNC(=O)c1ccc(CNC(=O)CN2CCN(CC(=O)O)CCN(CC(=O)O)CCN(CC(=O)O)CC2)cc1` [gallium-68 labelled] is reported as 3.5 %ID/g (mouse, CB-17 SCID, female, SU-DHL-8 xenograft, tumour; intravenous, 0.05 nmol, 90 min).
The tumour uptake of `N=C(N)NCCC[C@@H]1NC(=O)[C@H](CCCCNC(=O)CC[C@H](NC(=O)[C@H]2O[C@@H](CNC(=O)c3ccc(F)cc3)[C@H](O)[C@@H](O)[C@H]2O)C(=O)NCCCC[C@@H]2NC(=O)[C@@H](Cc3ccc(O)cc3)NC(=O)[C@H](CC(=O)O)NC(=O)CNC(=O)[C@H](CCCNC(=N)N)NC2=O)NC(=O)[C@@H](Cc2ccc(O)cc2)NC(=O)[C@H](CC(=O)O)NC(=O)CNC1=O` [fluorine-18 labelled] is reported as 2.32 ± 0.28 %ID/g (microPET imaging; female athymic nude mouse, U-87 MG xenograft, U-87 MG tumour; intravenous, 3.7 MBq, 1 h post-injection).
The tumour concentration of `Cc1cc(C)c(-c2[nH]nc(C)c2C)cc1C(=O)N1CC(c2ccc(C#N)cc2)C1` is reported as 5010 ng/g (mass spectrometry; mouse, Calu-6 xenograft, tumour; oral, 60 mg/kg, 6 h after last dose).
With `CC(F)C(=O)NC[C@@H]1O[C@H](C(=O)N[C@@H](CCC(=O)NCCCC[C@@H]2NC(=O)[C@@H](Cc3ccc(O)cc3)NC(=O)[C@H](CC(=O)O)NC(=O)CNC(=O)[C@H](CCCNC(=N)N)NC2=O)C(=O)NCCCC[C@@H]2NC(=O)[C@@H](Cc3ccc(O)cc3)NC(=O)[C@H](CC(=O)O)NC(=O)CNC(=O)[C@H](CCCNC(=N)N)NC2=O)[C@H](O)[C@H](O)[C@H]1O` (stereo partly drawn) [fluorine-18 labelled] the tumour uptake was 2.13 ± 0.17 %ID/g (microPET imaging; female athymic nude mouse, U-87 MG xenograft, U-87 MG tumour; intravenous, 3.7 MBq, 2 h post-injection).
`O=C(NCCN1C(=O)C=CC1=O)[O][Pt-2]12([O]C(=O)NCCN3C(=O)C=CC3=O)([NH2+][C@@H]3CCCC[C@H]3[NH2+]1)[O]C(=O)C(=O)[O]2` — result for “tumour uptake AUC ratio”: 10 fold (BALB/c mouse CT26 allograft, tumour; intravenous, equimolar single dose; baseline: compound over oxaliplatin).
For `N=C(N)NCCC[C@@H]1NC(=O)[C@H](CCCCNC(=O)CC[C@H](NC(=O)CN2CCN(CC(=O)O)CCN(CC(=O)O)CCN(CC(=O)O)CC2)C(=O)NCCCC[C@@H]2NC(=O)[C@@H](Cc3ccccc3)NC(=O)[C@H](CC(=O)O)NC(=O)CNC(=O)[C@H](CCCNC(=N)N)NC2=O)NC(=O)[C@@H](Cc2ccccc2)NC(=O)[C@H](CC(=O)O)NC(=O)CNC1=O` [gallium-68 labelled], the tumour uptake was 5.24 ± 0.27 %ID/g (female nude BALB/c mouse, SK-RC-52 xenograft, tumour; intravenous, 2 h).
Under “tumour to kidney ratio”, `CCCC[C@H](NC(=O)CNC(=O)CNC(=O)CN1CCN(CC(=O)O)CCN(CC(=O)O)CCN(CC(=O)O)CC1)C(=O)N[C@H]1CC(=O)NCCCC[C@@H](C(N)=O)NC(=O)[C@H](Cc2c[nH]c3ccccc23)NC(=O)[C@H](CCCNC(=N)N)NC(=O)[C@@H](Cc2ccccc2)NC(=O)[C@H](Cc2c[nH]cn2)NC1=O` [gallium-67 labelled] is recorded as 2.87 (female C57 mouse B16/F1 melanoma; intravenous, 0.037 MBq, 2 h).
With `CC(C)C[C@H](NC(=O)C[C@H](O)[C@H](CC(C)C)NC(=O)[C@H](Cc1c[nH]cn1)NC(=O)CNC(=O)[C@@H](NC(=O)[C@H](C)NC(=O)[C@H](Cc1c[nH]c2ccccc12)NC(=O)[C@H](CCC(N)=O)NC(=O)[C@@H](Cc1ccccc1)NC(=O)CCNC(=O)CCNC(=O)CN1CCN(CC(=O)O)CCN(CC(=O)O)CCN(CC(=O)O)CC1)C(C)C)C(N)=O` [gallium-68 labelled] the tumour uptake was 9.9 ± 1.3 %ID/g (mouse, PC-3 tumour xenograft, tumour; intravenous, 200 pmol, 1 h).
With `CC(F)C(=O)NC[C@@H]1O[C@H](C(=O)NCCCC[C@@H]2NC(=O)[C@@H](Cc3ccc(O)cc3)NC(=O)[C@H](CC(=O)O)NC(=O)CNC(=O)[C@H](CCCNC(=N)N)NC2=O)[C@H](O)[C@H](O)[C@H]1O` (stereo partly drawn) [fluorine-18 labelled] the tumour uptake was 1.03 ± 0.12 %ID/g (microPET imaging; female athymic nude mouse, U-87 MG xenograft, U-87 MG tumour; intravenous, 3.7 MBq, 2 h post-injection).
For `CCCC[C@H](NC(=O)CNC(=O)CNC(=O)CN1CCN(CC(=O)O)CCN(CC(=O)O)CCN(CC(=O)O)CC1)C(=O)N[C@H]1CC(=O)NCCCC[C@@H](C(N)=O)NC(=O)[C@H](Cc2c[nH]c3ccccc23)NC(=O)[C@H](CCCNC(=N)N)NC(=O)[C@@H](Cc2ccccc2)NC(=O)[C@H](Cc2c[nH]cn2)NC1=O` [indium-111 labelled], “tumour to skin uptake ratio” read 8.51 (C57 mouse, B16/F1 melanoma; 0.5 h; baseline: tumour over skin).
`O=C(O)CCC(NP(=O)(O)OCCC[C@@H](NC(=O)CC[C@H](NC(=O)CCCCCNC(=O)c1ccc([18F])cc1)C(=O)O)C(=O)O)C(=O)O` (stereo partly drawn) — result for “tumour to blood ratio”: 22 ± 4.17 (mouse, CWR22Rv1 xenograft; dose not given, 1 h; baseline: tumour over blood).
`CC(F)C(=O)NCCOCCOCCOCC(=O)N[C@@H](CCC(=O)NCCCC[C@@H]1NC(=O)[C@@H](Cc2ccc(O)cc2)NC(=O)[C@H](CC(=O)O)NC(=O)CNC(=O)[C@H](CCCNC(=N)N)NC1=O)C(=O)NCCCC[C@@H]1NC(=O)[C@@H](Cc2ccc(O)cc2)NC(=O)[C@H](CC(=O)O)NC(=O)CNC(=O)[C@H](CCCNC(=N)N)NC1=O` (stereo partly drawn) [fluorine-18 labelled] gave a tumour uptake of 2.3 ± 0.2 %ID/g (female athymic nude mouse, U-87 MG xenograft, U-87 MG tumour; dose not given, 1 h).
`CSc1cc(C)[nH]c(=O)c1CN1CCc2c(Cl)c3c(c(C)c2C1=O)OC(C)(C1CCC(N(C)C)CC1)O3` (stereo not drawn) has a tumour concentration of 350 ng/g (female CB-17 SCID mouse, KARPAS-422 xenograft, tumour; oral, 25 mg/kg once daily, 1 h post dose on day 12).
